Results pooled from the literature.
± marks the error that the study gave. Values after ≈ are worked out from the molar mass of the structure shown.

With CC1C=CC=CC(C)C2C=CC3CC(C)(O)C(Cl)C(C)C3C2C(=O)C(Cl)(Cl)C(=O)C(C)C(=O)O1 (stereo not shown) the MIC90 was 0.1 µg/mL (≈ 0.188 µM) (Staphylococcus aureus; MSSA and MRSA clinical isolates).
With Brc1ccc(-c2c[nH]c(-c3ccccn3)n2)cc1 the worm killing was 0% (Schistosoma mansoni; female worms; 10 µM).
CC(C)Sc1ccc(SC(C)C)c(O)c(=O)c1O has an MIC80 of 1.5 µM (≈ 0.43 µg/mL) (Cryptococcus neoformans; microbial growth, broth dilution; 13 h).
Oc1ccccc1/C=N/NC(=S)Nc1cccc(F)c1: “MIC fold improvement” 2 fold (Candidozyma auris; broth microdilution; 922; reference: hit compound).
O=C(Nc1ccccc1Nc1ccccc1)c1nccnc1Cl has an inhibition of 36.6% (Botrytis cinerea; microbial growth; 50 µg/mL).
COc1ccc(S(=O)(=O)NCc2c[nH]nc2-c2cccs2)cc1 gave a parasitemia of 1.2 ± 0.2% (Plasmodium vivax; reinvasion; 3, human, human red blood cells; 1× EC50, 20 h).
For COc1ccc(C(=O)CSc2nnc(COCCn3c([N+](=O)[O-])cnc3C)o2)cc1F, “inhibition zone diameter” read ≥ 20 mm (viridans streptococci; DMSO; 60 µg/mL, 24 h, 37 °C).
CC[C@H](C)[C@H](NC(=O)[C@H](CCCN)NC(=O)[C@H](CC(N)=O)NC(=O)[C@H](Cc1c[nH]c2ccccc12)NC(=O)[C@H](Cc1ccccc1)NC(=O)[C@H](CCCN)NC(=O)[C@H](CCCNC(=N)N)NC(=O)[C@H](CC(C)C)NC(=O)[C@H](Cc1c[nH]c2ccccc12)NC(=O)[C@H](CCCN)NC(=O)[C@H](CCCNC(=N)N)NC(=O)[C@H](CC(C)C)NC(=O)CNC(C)=O)C(=O)N[C@@H](CCCN)C(=O)N[C@@H](CCCNC(=N)N)C(N)=O — result for “geometric mean MIC”: 3.13 µM (Gram-positive bacteria).
Under “inhibition zone diameter”, Cc1ncc([N+](=O)[O-])n1CCOCc1nnc(SCC(=O)c2ccc([N+](=O)[O-])cc2)o1 is recorded as ≥ 20 mm (viridans streptococci; DMSO; 60 µg/mL, 24 h, 37 °C).
Cc1c(CN(C)C(=O)/C=C/c2cnc3c(c2)CC(N)C(=O)N3)oc2ccccc12 (stereo not shown) gave an MIC of 4 to 8 µg/mL (≈ 10.2 to 20.5 µM) (Acinetobacter baumannii, Klebsiella pneumoniae, Escherichia coli; efficacy model strains).
With CC(C)S(=O)(=O)c1ccc(S(=O)(=O)C(C)C)c(O)c(=O)c1O the MIC80 was 100 µM (≈ 35 µg/mL) (Cryptococcus neoformans; microbial growth, broth dilution; 13 h).
CN(Cc1cc(C2CC2)on1)C(=O)c1cccc(-c2ccc3c(c2)CCO3)c1 has an FIC index of 0.5 (Cryptococcus neoformans; H99; added: fluconazole).
For O=c1[nH]cc(C(c2cccc(Cl)c2)c2c[nH]c(=O)[nH]c2=O)c(=O)[nH]1, the inhibition was 58% (Human immunodeficiency virus 1; viral replication, inhibitor, ELISA; 1 µg/mL).
With CC1(C)NCCC[C@]2(C)[C@H]3CC=C4[C@@H]5C[C@@](C)(CO)CC[C@]5(C)CC[C@@]4(C)[C@]3(C)CC[C@@H]12 the EC90 was > 6 µM (Human alphaherpesvirus 1; cytopathic effect; HFF, E-377).
With O=[N+]([O-])c1ccc(/C=N/N=C/c2ccc(Cl)cc2)o1 the IC50 was 1.2 ± 0.24 µM (Trypanosoma brucei gambiense; parasite growth, CellTiter-Glo; IL1922 bloodstream form; 72 h).
Under “MIC geometric mean”, CC(C)C[C@@H]1NC(=O)[C@H](CCCCN)NC(=O)[C@H](C(C)C)NC(=O)[C@@H]2CCCN2C(=O)[C@@H](Cc2ccc(O)cc2)NC(=O)[C@H](CC(C)C)NC(=O)[C@H](CCCCN)NC(=O)[C@H](C(C)C)NC(=O)[C@H](CCCCN)NC(=O)[C@H](CC(C)C)NC(=O)[C@@H]2CCCN2C(=O)[C@@H](Cc2ccc(O)cc2)NC(=O)[C@H](C(C)C)NC(=O)[C@H](CCCCN)NC1=O is recorded as 7.2 µg/mL (≈ 4.31 µM) (Gram-positive bacteria; 24 h, 7 strains).
Under “concentration causing uncoupling”, COc1ccc(-c2nc(-c3ccccc3OC)[nH]c2-c2ccc(OC)cc2)cc1 is recorded as 10 µM (Schistosoma mansoni; worm pairs, no eggs).
CC[C@H](C)[C@H](NC(=O)[C@H](CCCCN)NC(=O)[C@H](CC(N)=O)NC(=O)[C@H](Cc1c[nH]c2ccccc12)NC(=O)[C@H](Cc1ccccc1)NC(=O)[C@H](CCCCN)NC(=O)[C@H](CCCCNC(=N)N)NC(=O)[C@H](CC(C)C)NC(=O)[C@H](Cc1c[nH]c2ccccc12)NC(=O)[C@H](CCCCN)NC(=O)[C@H](CCCCNC(=N)N)NC(=O)[C@H](CC(C)C)NC(=O)CNC(C)=O)C(=O)N[C@@H](CCCCN)C(=O)N[C@@H](CCCCNC(=N)N)C(N)=O: “geometric mean MIC” 3.13 µM (Gram-positive bacteria).
CC(C)C[C@@H]1NC(=O)[C@H](CCCCN)NC(=O)[C@H](C(C)C)NC(=O)[C@H](CCCCN)NC(=O)[C@H](CC(C)C)NC(=O)[C@@H]2CCCN2C(=O)[C@@H](Cc2ccc(O)cc2)NC(=O)[C@H](C(C)C)NC(=O)[C@H](CCCCN)NC(=O)[C@H](CCCCN)NC(=O)[C@H](C(C)C)NC(=O)[C@@H]2CCCN2C(=O)[C@@H](Cc2ccc(O)cc2)NC1=O: “MIC geometric mean” 1.5 µg/mL (≈ 0.963 µM) (Gram-positive bacteria; 24 h, 7 strains).
For c1ccc(-c2nc(-c3ccc4ccccc4c3)c[nH]2)cc1, the worm killing was 0% (Schistosoma mansoni; female worms; 5 µM).
With O=[N+]([O-])c1ccc(/C=N/N=C/c2ccc([N+](=O)[O-])s2)cc1 the IC50 was 1.41 ± 0.2 µM (Trypanosoma evansi; parasite growth, CellTiter-Glo; Tansui bloodstream form; 72 h).
NC(=NO)NCCC[C@H](N)C(=O)O — result for viability: “no effect” (Schistosoma mansoni; schistosomula; 100 µM, 24 h, 37 °C).
The EC50 of CSc1ccc(SC)c(O)c(=O)c1O is reported as 8.6 µM (Hepatitis B virus; viral replication, inhibitor; HepDES19).
CC1(C)S[C@@H]2[C@H](NC(=O)[C@H](NC(=O)C3=C(O)C(c4ccccc4F)NC3=O)c3ccccc3)C(=O)N2[C@H]1C(=O)O (stereo partly shown) gave an MIC of 25 µg/mL (≈ 44 µM) (Escherichia coli; broth microdilution; BW25113, Mueller-Hinton broth; added: CCCP 50 µg/mL).
For CC(C)C[C@@H]1NC(=O)[C@H](CCCCN)NC(=O)[C@H](C(C)C)NC(=O)[C@H](CCCCN)NC(=O)[C@@H]2CCCN2C(=O)[C@@H](Cc2ccc(O)cc2)NC(=O)[C@H](CCCCN)NC(=O)[C@H](CCCCN)NC(=O)[C@H](C(C)C)NC(=O)[C@@H]2CCCN2C(=O)[C@@H](Cc2ccc(O)cc2)NC1=O, “MIC geometric mean” read 116 µg/mL (≈ 86.2 µM) (Gram-positive bacteria; 24 h, 7 strains).
The IC50 of O=[N+]([O-])c1ccc(/C=N/N=C/c2ccc(OCc3ccccc3)cc2)o1 is reported as 0.62 ± 0.04 µM (Trypanosoma evansi; parasite growth, CellTiter-Glo; Tansui bloodstream form; 72 h).
The MIC80 of CCCCCCS(=O)(=O)c1cccc(O)c(=O)c1O is reported as 14 µM (≈ 4.01 µg/mL) (Cryptococcus neoformans; microbial growth, broth dilution; 13 h).
With Cc1nc2c(cnn2C(C)C)cc1C(=O)NCc1ccc(C(C)O)c(C)n1 (stereo not shown) the effective concentration was ≥ 1 µM (Drosophila melanogaster; larval locomotor rescue; APP Alzheimer model third-instar larvae; oral in food, dose not given).
c1ccc(CN2CCOCCOCCN(CCCCCCCCCCCCN3CCOCCOCCN(CCCCCCCCCCCCN4CCOCCOCCN(Cc5ccccc5)CCOCCOCC4)CCOCCOCC3)CCOCCOCC2)cc1 has a fold enhancement of 8 fold (Klebsiella pneumoniae; tetracycline MIC, checkerboard; ATCC BAA-2146; half MIC, added: tetracycline; reference: MIC alone over combination).
CN[C@H](CC(C)C)C(=O)N[C@H]1C(=O)N[C@@H](CC(N)=O)C(=O)N[C@H]2C(=O)N[C@H]3C(=O)N[C@H](C(=O)N[C@H](C(=O)O)c4cc(O)cc(O)c4-c4cc3ccc4O)[C@H](O)c3ccc(c(Cl)c3)Oc3cc2cc(c3O[C@@H]2O[C@H](CO)[C@@H](O)[C@H](O)[C@H]2O[C@H]2C[C@](C)(NCc3ccc(C(=O)OCCCCCCN(Cc4ccccn4)Cc4ccccn4)cc3)[C@H](O)[C@H](C)O2)Oc2ccc(cc2Cl)[C@H]1O gave a regulation factor of 67.3 ± 35.2 (Bacillus subtilis; protein synthesis, item: LiaH.1; 168; concentration not given, 10 min, at peak effective concentration; reference: untreated).
CSc1cccc(O)c(=O)c1O has an EC50 of 14.3 µM (Hepatitis B virus; viral replication, inhibitor; HepDES19).
C#CCN1CCC23C(=C(C(=O)OC)CC(C(=O)OC)C12)Nc1ccccc13 (stereo not shown) gave an inhibition of ~30% (Hepatitis B virus; viral replication, inhibitor, qPCR; HePAD38; 5 µM).
For CC(C)(C)N/C=C/c1ccccc1, activity read “inactive” (Schistosoma mansoni; somules and adults; up to 40 µM, 24 h).
CO[C@H]1/C=C/O[C@@]2(C)Oc3c(C)c(O)c4c(c3C2=O)C2=NC3(CCN(CC(C)C)CC3)NC2=C(NC(=O)/C(C)=C\C=C\[C@H](C)[C@H](O)[C@@H](C)[C@@H](O)[C@@H](C)[C@H](OC(=O)c2cccc(F)c2)[C@@H]1C)C4=O: “lung bacterial load reduction” 10 fold (Mycobacteroides abscessus subsp. abscessus; K21, NOD SCID mice; oral, 10 mg/kg once daily, 10 days; reference: vehicle).
O=[N+]([O-])c1ccc(/C=N/N=C/c2ccc(O)cc2)s1 has an IC50 of 0.43 ± 0.14 µM (Trypanosoma brucei gambiense; parasite growth, CellTiter-Glo; IL1922 bloodstream form; 72 h).
CC[C@H](C)[C@H](NC(=O)[C@H](CCCCN)NC(=O)[C@H](CO)NC(=O)[C@H](CC(C)C)NC(=O)[C@H](CCC(=O)O)NC(=O)[C@@H](NC(=O)[C@H](CCC(=O)O)NC(=O)[C@H](CC(N)=O)NC(=O)[C@H](CC(C)C)NC(=O)[C@@H](N)CCCCN)C(C)C)C(=O)N[C@@H](CO)C(=O)NCC(=O)NCC(N)=O: “reduction of proinflammatory cytokines” < 20% (Clostridioides difficile; Caco-2; concentration not given).
The IC50 of COc1ccc(/C=N/N=C/c2ccc([N+](=O)[O-])o2)cc1 is reported as 4.06 ± 1.5 µM (Trypanosoma evansi; parasite growth, CellTiter-Glo; Tansui bloodstream form; 72 h).
Cc1cc(N2CC[C@@](C#N)(C3(C)CC3)C2=O)cc(C(=O)NCc2cc(F)cc(-c3cnn(C)c3)c2)n1 — result for “gamete formation inhibition”: “inactive” (Plasmodium falciparum; NF54, stage V gametocytes; 1 µM).
For CCCCCCSc1ccc(SCCCCCC)c(O)c(=O)c1O, the EC50 was 11 µM (Hepatitis B virus; viral replication, inhibitor; HepDES19).
With O=[N+]([O-])c1ccc(/C=N/N=C/c2ccc([N+](=O)[O-])o2)cc1 the IC50 was 1.74 ± 0.74 µM (Trypanosoma evansi; parasite growth, CellTiter-Glo; Tansui bloodstream form; 72 h).

For quick reference, copied from above:
For CC(C)C[C@@H]1NC(=O)[C@H](CCCCN)NC(=O)[C@H](C(C)C)NC(=O)[C@H](CCCCN)NC(=O)[C@@H]2CCCN2C(=O)[C@@H](Cc2ccc(O)cc2)NC(=O)[C@H](CCCCN)NC(=O)[C@H](CCCCN)NC(=O)[C@H](C(C)C)NC(=O)[C@@H]2CCCN2C(=O)[C@@H](Cc2ccc(O)cc2)NC1=O, “MIC geometric mean” read 116 µg/mL (≈ 86.2 µM) (Gram-positive bacteria; 24 h, 7 strains).
CC(C)C[C@@H]1NC(=O)[C@H](CCCCN)NC(=O)[C@H](C(C)C)NC(=O)[C@H](CCCCN)NC(=O)[C@H](CC(C)C)NC(=O)[C@@H]2CCCN2C(=O)[C@@H](Cc2ccc(O)cc2)NC(=O)[C@H](C(C)C)NC(=O)[C@H](CCCCN)NC(=O)[C@H](CCCCN)NC(=O)[C@H](C(C)C)NC(=O)[C@@H]2CCCN2C(=O)[C@@H](Cc2ccc(O)cc2)NC1=O: “MIC geometric mean” 1.5 µg/mL (≈ 0.963 µM) (Gram-positive bacteria; 24 h, 7 strains).
Oc1ccccc1/C=N/NC(=S)Nc1cccc(F)c1: “MIC fold improvement” 2 fold (Candidozyma auris; broth microdilution; 922; reference: hit compound).
With O=[N+]([O-])c1ccc(/C=N/N=C/c2ccc([N+](=O)[O-])o2)cc1 the IC50 was 1.74 ± 0.74 µM (Trypanosoma evansi; parasite growth, CellTiter-Glo; Tansui bloodstream form; 72 h).
